Published values collected from several papers.
Each numbered part is a random draw from the data of one study; scales do not carry over between parts.

Study 1
Target: Sox, HMG box (Pigoraptor chileana)
Method: Spec-seq
Molecule type: double-stranded DNA, one strand shown
Matrix: in vitro
Tested at: not given
Notes: whole probe, mean of replicates
Reference: not given
Reading: lower = stronger binding
Constant ends, left off below: GAGTCGTCTCGTCAGCAC … CCGTAGAGCACTCAGGTC
Target sequence (chain): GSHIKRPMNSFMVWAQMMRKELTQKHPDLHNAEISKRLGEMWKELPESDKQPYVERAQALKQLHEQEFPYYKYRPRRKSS
Sequence | relative binding energy [ln ratio]
CTTGGTT | 0.62
GTCAGTT | 0.693
CATACAG | -0.322
CATTACC | 0.451
CATATAG | -0.28
CATGAGG | 0.424
CATAATG | -1.43
CATCAAC | 0.0822
CAATGTT | -0.407
CATGTAT | 0.376
CATTGGT | 0.164
CATAAGA | -0.367
TACTGTT | -1.85
TTGCGTT | 0.821
GCAAGTT | 0.926
CATTGAG | -0.48
CATGTGA | 0.741
CATCTGT | -0.671
AAAAGTT | -1.22
CATAACT | -0.152

Study 2
Target: Interferon regulatory factor 7, full length, phosphomimetic (IRF7, Homo sapiens, UniProt Q92985, residues 1-503, S471D/S472D/S475D/S476D/S477D/S483D/S484D/S487D)
Method: protein-binding microarray
Molecule type: double-stranded DNA, one strand shown
Matrix: in vitro
Tested at: 2200 nM top
Notes: 60-bp whole probe
With: salmon DNA 0.4 mg/ml
Reference: random background probes
Reading: higher = stronger binding
Constant ends, left off below: GCCTAGCAC … GTCTTGATTCGCTTGACGCTGCTG
Construct (chain): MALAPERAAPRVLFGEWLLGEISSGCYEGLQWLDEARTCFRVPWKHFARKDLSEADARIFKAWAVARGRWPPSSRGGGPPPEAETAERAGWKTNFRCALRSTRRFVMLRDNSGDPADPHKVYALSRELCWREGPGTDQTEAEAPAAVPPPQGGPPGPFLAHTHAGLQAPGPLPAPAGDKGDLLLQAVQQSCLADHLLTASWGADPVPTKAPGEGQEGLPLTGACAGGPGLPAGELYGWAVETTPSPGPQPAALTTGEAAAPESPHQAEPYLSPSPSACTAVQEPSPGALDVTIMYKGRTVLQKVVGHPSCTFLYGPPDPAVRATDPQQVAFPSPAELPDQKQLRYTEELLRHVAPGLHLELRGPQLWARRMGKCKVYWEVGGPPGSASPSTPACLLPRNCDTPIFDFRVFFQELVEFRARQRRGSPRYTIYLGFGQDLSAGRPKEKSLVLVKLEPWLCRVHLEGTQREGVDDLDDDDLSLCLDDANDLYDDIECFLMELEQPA
Sequence | fitted relative affinity
GACTGTTTCCTTTCCCTGACGTGCTAG | 4.2 z-score
CACGGTATCGGGACTGGGGACGTGCTA | -0.335 z-score
GAACATTTCCTTTACATTCCGTGCTAG | 2.09 z-score
TTAGGTTCCCTTGTCCTTTAGTGCTAG | 1.24 z-score
TATTTTCCTTTAAACTTTTAGTGCTAG | 3.1 z-score
TCACCTTTTATATTGTAACTGTGCTAG | 1.8 z-score
GACGGTCTCGGTCTCGGAACGTGCTAG | -0.016 z-score
GACGGACTGGGCTATCGGGACGTGCTA | -1.17 z-score
TGGGTTTTCAGCTGTTTTTCTGTGCTA | 1.07 z-score
TTAGGTCTCCTAATCCTTTAGTGCTAG | 0.501 z-score
TCTCTGCTACCCTTTGAAAGTGTGCTA | 1.02 z-score
GACGGACTGGGATTCGGGACGTGCTAG | -0.506 z-score
TCACAGCTATTTTTAGGACTGTGCTAG | 0.0305 z-score
GACGTTTTCGGGTATCGAGACGTGCTA | 5.72 z-score
TTAGCTTTCGGTATCGGTTAGTGCTAG | 7.83 z-score
GACGGTTTCGGCATCGGGACGTGCTAG | 3.14 z-score
TTAGGTCCCCTTATCCTTTAGTGCTAG | 1.04 z-score
ATCATTCTCACTGCAGCCTTGTGCTAG | 1.56 z-score
TTAGGACTGCATATCCTTTAGTGCTAG | -0.0313 z-score

Study 3
Target: Histone acetyltransferase KAT6A, winged helix 2, GST fusion (KAT6A, Homo sapiens, UniProt Q92794, residues 85-181)
Method: protein binding microarray
Molecule type: double-stranded DNA, one strand shown
Matrix: in vitro
Tested at: not given
Notes: 8-mer, flanks averaged, mean of 2 arrays, mostly near background
Reference: not given
Reading: higher = stronger binding
Residues (chain): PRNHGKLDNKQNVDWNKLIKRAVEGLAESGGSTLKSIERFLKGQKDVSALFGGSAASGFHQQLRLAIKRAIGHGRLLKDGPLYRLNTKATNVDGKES
Sequence | E-score
GGGGAAGA | 0.0698
CTACGGAA | -0.188
AAATAATG | 0.0462
CAAATTTA | -0.055
GAAGAAAC | 0.125
CATGTTTA | -0.158
GTCTTCAA | -0.0849
CATATCAA | 0.0847
CTGCGCTA | -0.0682
ATGGAATA | -0.0104
TCACGAGA | -0.0242
ATCTTTGG | 0.0294
AACAACCC | -0.0244
ATCCAGAG | 0.0975
CGTTCTCA | -0.189
AAGGAGTA | -0.19
AAATCGGG | -0.0876
ATGGACGC | 0.0673
GTCCACGA | -0.0126
ATCCCCGG | -0.0807
AAGCTATA | 0.149
CAGAGGGG | 0.153
AACCCTGC | -0.0481
ACTCAAAG | -0.116
TACCGCGA | 0.17

Study 4
Target: TAR DNA-binding protein 43, full length, His tag (TARDBP, Homo sapiens, UniProt Q13148, residues 1-414)
Method: RNA Bind-n-Seq
Molecule type: RNA
Matrix: in vitro
Tested at: 20 nM
Notes: 6-mer, flanks averaged, single round
With: 150 mM LiCl
Reference: input library
Reading: higher = stronger binding
Sequence | 6-mer enrichment (R)
GGAUGA | 1.11
CCGGCA | 0.898
AGAAGG | 1.04
GUUCCA | 0.913
AGGAUG | 1.05
AGCGGA | 0.984
UUAAAA | 0.947
GCAUCG | 0.863
UGACCG | 0.897
ACUGCC | 0.907
GAGCGG | 1.15
ACGCCU | 0.885
ACCCGA | 0.974
CUCCUU | 1.03
GGCCUG | 1.02
AUCAUG | 0.866

Some of these lines once more (study 1):
Sequence | relative binding energy [ln ratio]
CATATAG | -0.28
CATGAGG | 0.424
CATAATG | -1.43
CATCAAC | 0.0822
CAATGTT | -0.407
CATGTAT | 0.376
CATTGGT | 0.164
CATAAGA | -0.367
TACTGTT | -1.85
TTGCGTT | 0.821
